Published values gathered from unrelated publications.
A part holds a random share of what one study measured. Positions count from the first letter of the parent shown.

Series 1
Target: Interferon regulatory factor 7, full length, phosphomimetic (IRF7, Homo sapiens, UniProt Q92985, residues 1-503, S471D/S472D/S475D/S476D/S477D/S483D/S484D/S487D)
Technique: protein-binding microarray
Molecule type: double-stranded DNA, one strand shown
Medium: in vitro
Tested at: 2200 nM top
Notes: 60-bp whole probe
Added: salmon DNA 0.4 mg/ml
Baseline: random background probes
Direction: higher = stronger binding
All sequences stand within: GCCTAGCAC … GTCTTGATTCGCTTGACGCTGCTG
Construct (chain): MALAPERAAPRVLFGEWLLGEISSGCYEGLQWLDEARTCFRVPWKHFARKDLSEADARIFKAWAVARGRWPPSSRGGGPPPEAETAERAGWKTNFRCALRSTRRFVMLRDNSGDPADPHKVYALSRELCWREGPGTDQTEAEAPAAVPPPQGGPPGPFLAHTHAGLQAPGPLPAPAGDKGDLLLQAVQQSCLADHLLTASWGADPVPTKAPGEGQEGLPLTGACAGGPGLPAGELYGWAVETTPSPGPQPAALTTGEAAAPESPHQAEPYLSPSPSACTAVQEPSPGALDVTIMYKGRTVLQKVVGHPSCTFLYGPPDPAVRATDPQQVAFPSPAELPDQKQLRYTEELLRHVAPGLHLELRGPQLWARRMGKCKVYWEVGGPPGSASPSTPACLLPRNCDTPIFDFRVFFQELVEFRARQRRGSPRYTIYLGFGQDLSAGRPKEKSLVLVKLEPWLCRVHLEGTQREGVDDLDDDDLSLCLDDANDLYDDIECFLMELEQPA
Strand | fitted relative affinity
TGAGGTATCGGTTTCGGTTAGTGCTAG | 6.96 z-score
ATTTTTTTTTTCATCATTGCGTGCTAG | 1.88 z-score
GACGATTTCAGTTCCGACACGTGCTAG | 1.94 z-score
TTAGGTCTCGGACTGGGTGAGTGCTAG | -0.397 z-score
TCACTTCTCTTTTGGCTACTGTGCTAG | 3.55 z-score
GAATGATTACATATATGTTGGTGCTAG | 0.344 z-score
TCATTTTTTTTTTTTCTACTGTGCTAG | 2.66 z-score
TCAGTCCTCTCTCTATTACTGTGCTAG | 2.01 z-score
GCCGATATCAGTCTCGAGACGTGCTAG | 0.628 z-score
TCACAGAAGGGAAACAGGACTGTGCTA | -0.801 z-score
TTAGATATCGGGTCTCGATTAGTGCTA | 0.365 z-score
TTCCCTCCCTAATTCTGATTGTGCTAG | 2.74 z-score
CTTGCTTTCCTACTGAAATAGTGCTAG | 2.12 z-score
GACGGTTTCGGTCTCTGGACGTGCTAG | 7.82 z-score
TTAGGTATCGACTTACGGTTAGTGCTA | 0.974 z-score
GACGGTTTCCTTCTCCTGATGTGCTAG | 3.1 z-score
TCATATTTGCTTCAGGTACTGTGCTAG | 1.59 z-score
ATAGGTATCCTTATCCTTTAGTGCTAG | 0.798 z-score
TTAGTTTTCGGGACTGGGTTAGTGCTA | 3.6 z-score
GAAGGTTTCCTTTCCCTGACGTGCTAG | 3.7 z-score
TCATATATGTGTATATAACTGTGCTAG | 1.01 z-score
TTAGGTTTCGACTATCGGTAAGTGCTA | 3.2 z-score
GACGATTCCAGTTGCGAGACGTGCTAG | 0.887 z-score
GACGATATCGGGTTTCGCGACGTGCTA | 1.01 z-score
TTAGGTTTCCTTATCCTATAGTGCTAG | 2.27 z-score

Series 2
Target: RNA binding protein fox-1 homolog 2, RRM domain, GST-SBP tag (RBFOX2, Homo sapiens, UniProt O43251-10, residues 100-194)
Technique: RNA Bind-n-Seq
Molecule type: RNA
Medium: in vitro
Tested at: 365 nM
Notes: natural RNA segment, single round, ends assumed
Baseline: no-protein control
Direction: higher = stronger binding
All sequences stand within: GGGAGUUCUACAGUCCGACGAUC … UGGAAUUCUCGGGUGCCAA
Target sequence (chain): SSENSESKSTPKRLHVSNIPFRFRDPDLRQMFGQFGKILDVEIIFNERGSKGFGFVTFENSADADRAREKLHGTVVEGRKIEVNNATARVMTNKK
Strand | RBNS enrichment (R)
CUUGGCUCCAGCCCCUUCUCCUACCACCUCUAUUUAUUAUACAUCAGGGUUGGAGUGGGGGUUGGUCCCUCAGGGGCUCAAGUUCCUUCUCUCAGCUGGGACAGGAGGUG | 0.223
AUGGACUUCGUGAUUUUUGUUUUGCACUAAAGUUUCUGUGAUUUAACAAUAAAAUUCUGUUAGCCAGUCUGGGCCUAAUGUUUCUGUGACCCUUCAGCUGGAAGAGUUUG | 0.462
UUCAUGGUGGCAAAAUAUUAGCUCUGUUUUGGGACAUUUUAAAAUAGAACUAUCCUUGUUCGAUAGCAUAGGAAAAUGUUCUGGUGAUUGUCAGGGUCUCCUAAUAUUUA | 0.56
UUACCCUUCUCACUCACCAGGCCCACAGUCGCCUGCACUCAGUGCUGUUUGUAACACAUCUGUUAUUCUGCCUACCUGUACUUUUUGCUGCCCAUCCCUGUUGCCUUUGA | 0.656
AAAACCAUUUGGCUGGCAGAAAUUAUCUAGAAAAAUUAUUAUUUUGCAGUUAUCUGAGACACCAAACUUACCAUCCUUUAUUUUACAAUAUUUUUGAUCGACCAAAUAAA | 0.576
UUGGAGAUGGAAUUUCAGGAAGGGAUAUAUUAUUUAAGAUUAUUGUUUAAUUACAAGAAUUUUAAAAGAAUGUAUGAAUUCUGUUUUUUAAUAUAGAAAAUAAUUAUGGA | 0.682
CCUGAGCACAAGAAGCAGUAAGUUGGCACCUUGCCACACUGUUGGUUGGGCCCAGGUGCUGCUCAGCCAGGAAACGAGAGCAAACACUCCAGGGCCUUUGCAAGCCCAUC | 0.282
GUAAUAGCAAGAGUGAAGGUACUUUGGAACCACUAACACCUCUGCACAGGGCAGUUAGCCAGCUCAAGUUCUUUUUCAGAGAAAGGGACUUGGCCAGUGGUUUAAGUACC | 0.353
AAUUCUAUGGAAUAGUUCUGUAUAUAGGGCACAAGUAAAGGCAUUGUCCAAAGUUUAUUUAUUUAUUUAUUACCCUAAGAAUGCUUUGCCAUAACCACAUUUAAUGGGAA | 0.625
CCAUCUGUCUUCAUGAUUGUACUUGAGCAGUAUUAGCUGUAUGAGUUAAUUUUAUUCAGAUUGAAGAUGGAGGGCUGGGUUCUGCUCACUCAGUCUUUUUUUUUUUUUUU | 0.627
AGCCACUUGAACCCUCAAUAAAGGCUGUUGCCUAAGCAUGGCAUACUUCAUCUGUUCUCAUUUGUGCCAUCUGCCGUGAUGUCGUCACUUUUAUGGCGUUAAUUUCCUGC | 0.315
ACUGCCAGCUUCCGCUUCUCUGUGCUCUGUGUCUGCGGUUUACAUAUAGAUCGUCCCCCUGGAAACUGAGGCAUGAGCUCUUCCUCAGAAGUCUGUGAGGGUGAAUGCUA | 0.969

Series 3
Target: CREM, bZIP domain (human)
Technique: DHFR protein complementation
Medium: yeast
Notes: single substitutions, most at no-binding floor
Baseline: wild-type JUN-FOS pair
Direction: higher = stronger binding
Starting sequence: JUN, bZIP domain (human); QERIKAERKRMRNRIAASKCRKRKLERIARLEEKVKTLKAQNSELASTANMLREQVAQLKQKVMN; partner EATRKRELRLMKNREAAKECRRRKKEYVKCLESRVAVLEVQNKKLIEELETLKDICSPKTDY
Change | binding fitness
L45V | -1.65 natural log
Q41W | -1.5 natural log
V35R | -1.43 natural log
S47M | -1.41 natural log
E54W | -1.48 natural log
N42P | -1.51 natural log
S47W | -1.46 natural log
K39N | -1.47 natural log
V35T | -1.52 natural log
S47P | -1.52 natural log
K34V | -1.28 natural log
N42S | -1.49 natural log
R30N | -1.41 natural log
S43R | -1.39 natural log
E44K | -1.37 natural log
N42Y | -1.45 natural log
K39C | -1.5 natural log
S43N | -1.41 natural log
E32V | -1.58 natural log

Series 4
Target: Histone acetyltransferase KAT6A, both winged helices, GST fusion (KAT6A, Homo sapiens, UniProt Q92794, residues 1-181)
Technique: protein binding microarray
Molecule type: double-stranded DNA, one strand shown
Medium: in vitro
Tested at: not given
Notes: 8-mer, flanks averaged, mean of 2 arrays, mostly near background
Baseline: not given
Direction: higher = stronger binding
Target sequence (chain): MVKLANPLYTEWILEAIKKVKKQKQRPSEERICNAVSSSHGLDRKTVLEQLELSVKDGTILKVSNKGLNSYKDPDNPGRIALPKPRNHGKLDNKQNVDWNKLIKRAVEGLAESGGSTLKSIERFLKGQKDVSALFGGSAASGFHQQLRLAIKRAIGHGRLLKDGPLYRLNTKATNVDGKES
Strand | E-score
CAGAGGTC | -0.0542
AACGGATG | 0.128
GCCCAGGA | -0.186
ATTCTGAG | -0.122
CGCAGACC | 0.109
GGGTACTA | -0.00061
AGGTTGGG | -0.131
AAGATGCT | -0.125
AGTTTATC | -0.063
GCTCCACA | -0.0545
AGTGAGGA | -0.373
CCTGATTA | -0.119
CTTCGCGA | 0.15
CGCGCCCA | 0.222
ACTTCTGC | 0.125
CTTAGGCA | -0.196
CTTTTTAA | -0.178
ACTGCTAT | -0.131
AGTGTACG | 0.182
ATCTTACA | -0.112
GACGATGA | 0.0865
GTGGATCA | -0.101
ATCGAAGC | 0.00705
CACACCGC | 0.157
AAGAATAG | -0.0935

Series 5
Target: ABI1, truncated, D143A, DHFR fusion (Arabidopsis thaliana)
Technique: DHFR PCA, deep sequencing
Medium: yeast
Notes: methotrexate growth selection, single substitutions
Added: (+)-ABA 1.4 µM
Baseline: wild-type fitted maximum
Direction: higher = stronger binding
Starting sequence: PYL1, truncated, DHFR fusion (Arabidopsis thaliana); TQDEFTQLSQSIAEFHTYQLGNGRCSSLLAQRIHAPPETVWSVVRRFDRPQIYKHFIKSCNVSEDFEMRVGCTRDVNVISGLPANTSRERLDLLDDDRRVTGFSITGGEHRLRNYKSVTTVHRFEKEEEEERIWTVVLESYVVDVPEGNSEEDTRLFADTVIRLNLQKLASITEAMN
Change | relative binding score [%]
E14Q | 32.3
R32Y | 34.7
P36C | 36.3
V121W | -9.12
E67Q | 49.8
E130M | 47.4
N165C | 7.36
R111I | 3.59
V62F | 7.83
Q167R | 74.9
L169A | -1.14
K116N | 1.12
R74P | -6.8
A175G | 61.8
S150T | 75
S104V | -0.931
S171N | 45.4
D65N | 62.1
R24M | 50.3
F5N | -1.67
N114P | -8.91
E4K | 24
R98A | 28.4
G23M | 25.9
S117W | -2.78

Repeated from above (series 5):
Change | relative binding score [%]
R111I | 3.59
N165C | 7.36
E14Q | 32.3
F5N | -1.67
D65N | 62.1
N114P | -8.91
Q167R | 74.9
R98A | 28.4
S150T | 75
G23M | 25.9
E67Q | 49.8
E4K | 24
E130M | 47.4
R32Y | 34.7
P36C | 36.3
K116N | 1.12
V62F | 7.83
